Assay results collected from several papers.
Compare with care: the assays were run in different laboratories. ± gives the spread as reported.

N#Cc1ccc(N2N=C3c4ccccc4CCC3C2C2CCCC2)cc1Cl (centres unmarked)  kinetic solubility (PBS; 90 min): < 1 µM
CC1=C(O)C(=O)C=C2C1=CC=C1[C@@]2(C)CC[C@@]2(C)[C@@H]3C[C@](C)(C(=O)O)CC[C@]3(C)CC[C@]12C  kinetic solubility (aqueous buffer; 90 min, pH 7.4, 25 °C, 0.1% DMSO): 42.2 ± 0.7 µM
O=C1NC(=O)C(=Cc2ccc(-c3cc([N+](=O)[O-])ccc3O)o2)C(=O)N1  kinetic solubility (PBS; 24 h, pH 7.4, 21 °C, 2.0% DMSO): 85.8 µM
COc1ccc(NC(=O)Nc2ccc3c(c2)C=CCP(=O)(O)O3)cc1  kinetic solubility (HPLC-UV; 50 mM PBS; 16 h, pH 7.4, 25 °C, upper limit 2.5 mg/mL): 2260 µg/mL
CCOC(=O)C(CC)(CCCSCCOCCOCCOCCNC(=O)OC(C)(C)C)NC(=O)c1ccc(C2CC2)c(Cc2ccc(F)cc2)n1 (centres unmarked)  kinetic solubility (aqueous buffer with DMSO): < 0.2 µg/mL
CNC(=O)c1ccc(C2=NN(c3ccc(C#N)c(Cl)c3)C(C)C2)cc1 (centres unmarked)  kinetic solubility (PBS; 90 min): < 1 µM
CCOC(=O)[C@](CC)(CCC[S+]([O-])CCOCCOCCNC(=O)OC(C)(C)C)NC(=O)c1ccc(C2CC2)c(Cc2ccc(F)cc2)n1 (some centres unmarked)  kinetic solubility (aqueous buffer with DMSO): 5.2 µg/mL
O=C(Nc1ccc2c(c1)C=CCP(=O)(O)O2)c1ccc(F)cc1  kinetic solubility (HPLC-UV; 50 mM PBS; 16 h, pH 7.4, 25 °C, upper limit 2.5 mg/mL): 2140 µg/mL
N#Cc1ccc(N2N=C3c4ccc(O)cc4CCC3C2C2CCCC2)cc1Cl (centres unmarked)  kinetic solubility (PBS; 90 min): 8 µM
C=CCC(CC)(NC(=O)c1ccc(C2CC2)c(Cc2ccc(F)cc2)n1)C(=O)OCC (centres unmarked)  kinetic solubility (aqueous buffer with DMSO): 3.1 µg/mL
Cc1nc2c(=O)n(C)c(=O)nc-2n(C)n1  kinetic solubility (buffer; pH 1.2): > 200 µM

For quick reference, copied from above:
O=C1NC(=O)C(=Cc2ccc(-c3cc([N+](=O)[O-])ccc3O)o2)C(=O)N1  kinetic solubility (PBS; 24 h, pH 7.4, 21 °C, 2.0% DMSO): 85.8 µM
